Experimental data from different studies.
A part holds a random share of what one study measured. Substitutions count along the parent as printed.

Series 1
Target: TAR DNA-binding protein 43, full length, His tag (TARDBP, Homo sapiens, UniProt Q13148, residues 1-414)
Method: RNA Bind-n-Seq
Form: RNA
Medium: in vitro
Tested at: 20 nM
Setting: 6-mer, flanks averaged, single round
Together with: 150 mM KCl
Relative to: input library
Reading: higher = stronger binding
Endpoint: 6-mer enrichment (R)
Sequence = UGAGGC; result = 1.44
Sequence = GCAUGG; result = 1.83
Sequence = GUUGCC; result = 0.804
Sequence = UCGAUG; result = 0.771
Sequence = AUCUAG; result = 0.609
Sequence = AAUUCG; result = 0.61
Sequence = GGUUUG; result = 1.41
Sequence = CAAUAG; result = 0.692
Sequence = CAGAUA; result = 0.622
Sequence = GGCAAA; result = 1.24
Sequence = ACGCAG; result = 0.93
Sequence = UUAACU; result = 0.569
Sequence = ACGCAA; result = 0.685
Sequence = GAACUU; result = 0.652
Sequence = UCCGAC; result = 0.625
Sequence = GCGAUU; result = 0.773
Sequence = AAUCGC; result = 0.611
Sequence = UAAUCC; result = 0.569
Sequence = GAAAUA; result = 0.681
Sequence = GUAGCC; result = 0.839
Sequence = GAUUGU; result = 0.762
Sequence = GCUGAG; result = 1.5
Sequence = GUGAGG; result = 3.74

Series 2
Target: CCNB3, cyclin fold, Cln2 fusion (human)
Method: yeast growth competition, sequencing
Medium: yeast
Setting: weak parent motif
Relative to: not given
Reading: higher = stronger binding
Endpoint: normalised enrichment score
Parent: MICAL3 docking peptide (human); LQLRRQLSFSEDS; partner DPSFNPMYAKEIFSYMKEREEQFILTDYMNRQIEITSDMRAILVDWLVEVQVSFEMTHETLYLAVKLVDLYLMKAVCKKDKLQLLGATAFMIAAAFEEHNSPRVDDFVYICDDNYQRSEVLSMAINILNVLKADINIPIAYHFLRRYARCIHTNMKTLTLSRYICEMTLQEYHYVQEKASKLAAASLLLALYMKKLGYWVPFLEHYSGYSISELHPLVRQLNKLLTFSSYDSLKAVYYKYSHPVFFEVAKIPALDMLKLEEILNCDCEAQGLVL
Change = LQLRRQWSFSEDS [L7W]; result = 0.15
Change = LQLRRTLSFSEDS [Q6T]; result = 1.85
Change = LQLRRQLIFSEDS [S8I]; result = 0.395
Change = LCLRRQLSFSEDS [Q2C]; result = 0.206
Change = LQLRRQLGFSEDS [S8G]; result = -0.0041
Change = LQLRRRLSFSEDS [Q6R]; result = 0.813
Change = LQLRRPLSFSEDS [Q6P]; result = 0.0997
Change = LQLRRQLSRSEDS [F9R]; result = 0.372
Change = LQLWRQLSFSEDS [R4W]; result = 0.863
Change = LQLFRQLSFSEDS [R4F]; result = 0.598
Change = LQLRRQVSFSEDS [L7V]; result = 0.114
Change = LQFRRQLSFSEDS [L3F]; result = 0.284
Change = LQLRIQLSFSEDS [R5I]; result = 0.0279
Change = LQLRRQLSFSEIS [D12I]; result = 0.347
Change = LQLRRQLSFREDS [S10R]; result = 0.354
Change = LQLRRQLSFHEDS [S10H]; result = -0.118
Change = LQLRRQLSFQEDS [S10Q]; result = 0.0407
Change = LQLERQLSFSEDS [R4E]; result = -0.541
Change = LQLRRVLSFSEDS [Q6V]; result = 0.924
Change = LQLRRQLSISEDS [F9I]; result = -0.318
Change = LQLRRQLPFSEDS [S8P]; result = 0.0425
Change = LQLRRQLSFGEDS [S10G]; result = 0.474
Change = LQLRRQLSFSEFS [D12F]; result = 0.219
Change = LLLRRQLSFSEDS [Q2L]; result = 0.318
Change = LQLSRQLSFSEDS [R4S]; result = 0.00109

Series 3
Target: RING finger protein unkempt homolog, zinc fingers 1-6, GST-SBP tag (UNK, Homo sapiens, UniProt Q9C0B0, residues 30-357)
Method: RNA Bind-n-Seq
Form: RNA
Medium: in vitro
Tested at: not given
Setting: RNA with constant flanks, human and mouse sites, ends assumed
Relative to: input RNA pool
Reading: higher = stronger binding
Endpoint: bound/input enrichment
Shared flanks, not repeated: GGGAGUUCUACAGUCCGACGAUC … CAACAGAGGAUUGAGCAUCA
Target sequence (chain): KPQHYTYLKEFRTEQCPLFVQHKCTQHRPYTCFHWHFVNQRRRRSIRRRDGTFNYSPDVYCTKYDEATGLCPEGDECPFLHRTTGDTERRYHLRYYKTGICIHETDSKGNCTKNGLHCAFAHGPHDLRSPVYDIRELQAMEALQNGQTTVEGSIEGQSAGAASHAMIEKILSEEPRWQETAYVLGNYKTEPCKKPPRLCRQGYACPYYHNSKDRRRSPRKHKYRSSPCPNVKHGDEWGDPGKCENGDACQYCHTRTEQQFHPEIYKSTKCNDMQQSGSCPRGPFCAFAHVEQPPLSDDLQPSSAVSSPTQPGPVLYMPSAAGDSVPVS
Sequence = GCUUUGACUUCGAAAAAAGCAAGGUUUGAUCCAUAUGGAAAAAAUAAGUUCUCCACUUGCAGAAUUUGUAAAAGUUCUGUACACCAGCCAGGUUCUCAUUACUGUCAAGGCUGCGCCUAC; result = 0.0919 ratio
Sequence = ACUGAUGGCACGGGCAGAAUCACAUUUAAGAAAAAUGGUUUGGAACACUUUUUAAUAAAAAAUUGUAAAAUCAGUUUCCAGUGUGGUCAAAAUUAGAAUGUAAAGGAAAGCAUUUUUAAG; result = 0.827 ratio
Sequence = AAGUGCUUAUGAUUCAAUUAAUCUACAUUUUGGUAAUCAAUUAUAAAAUACUUUUUAAAUUAGUAUUGGCUAUUUUUUUUUUUUACCCUGGGAAGAUGCUGUCUGCUCACAGGAGUCCCA; result = 5.2 ratio
Sequence = CAGAGCUGGACAGACUUUUCAAGGCUCCAUCUUUCUAAUAAACUGGCCAUUUUUGGAAUUGGUUAUAACACCCGUUGGAAAGAGGAUAUCCGUUACCAUUAUGCUGAGAUCAGCUCCCAG; result = 0.0965 ratio
Sequence = CAGCAGCCACAGCCACUGAUGUCACAGCAGUUUGCACAGCCUCCAGGAGCUACCAAUAUGAUAGGCUACAUGGGGCAGACUGCUUACCAGUACCCUCCCCCUCCCCCUCCCCCUCCUCCA; result = 0.333 ratio
Sequence = AAUCACUUUGAAAUCCUCCCUCCUGAACUGGGUGACUGUCGGGCUCUGAAGCGAGCUGGUUUAGUUGUAGAAGAUGCUCUGUUUGAAACUCUGCCUUCUGACGUCCGGGAGCAAAUGAAA; result = 2.2 ratio
Sequence = AAGAAUGCAGUCAUUGUUGACACUACCAUCUGCGACCCACAUUACAACCUGGCCCGCAGCAGCCGGCCCUUCGAGAGGCGCCUCUAUGUCCUGAACUCAAUGCAGGAUGUGGAAAACUAC; result = 0.184 ratio
Sequence = CUGCUGGCUUUGUAUCAUCUUUAUGUUUAAAUGCAAAGGAAAUUAAAAAUGUCUGGAAAUGUUUUUGACUAAGUAAUGCAGCCUAGAAGCAAUGGUUCUCUUCAACCCUUCAGAUGUCUA; result = 0.202 ratio

Series 4
Target: RNA binding protein fox-1 homolog 2, RRM domain, GST-SBP tag (RBFOX2, Homo sapiens, UniProt O43251-10, residues 100-194)
Method: RNA Bind-n-Seq
Form: RNA
Medium: in vitro
Tested at: 365 nM
Setting: natural RNA segment, single round, ends assumed
Relative to: no-protein control
Reading: higher = stronger binding
Endpoint: RBNS enrichment (R)
Shared flanks, not repeated: GGGAGUUCUACAGUCCGACGAUC … UGGAAUUCUCGGGUGCCAA
Residues (chain): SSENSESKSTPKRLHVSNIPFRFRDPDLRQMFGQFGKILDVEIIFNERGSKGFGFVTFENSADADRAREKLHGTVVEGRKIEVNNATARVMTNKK
Sequence = AGGACGGGAGCUUCCUUGAAAAAUGUAACCUGGACAUCGUUGUCAAUCCCACAACCCCUGACUCUCUGUGCUUCUAGUCCUGACGGUGUAUUAAACGUCCAUUUAACUUG; result = 0.922
Sequence = GUGGUUGGAGGGCUGGUUCAGGUGCCCUGGAGGGAAGGGGAAGCCUGUGGCCCUGAUUUGUUCAGAGCCCAUUCUCCCUUGCCUCCCCUUUUGAGACUGGAGCCAACCCU; result = 0.35
Sequence = UCUUUGAAAUAGUUUGUGUGAAGGUGAAAGUGCAGUUCAGUAAUAAAUGGUGUCUGUGACUCUGUGACCACAGCCUUGGCUCUGCGCCGCAUGAGUAAGGGGGAAACUGC; result = 1.47
Sequence = CUCUCUGUUCUUGUUAUCUUAGCCAACUAUACUGAUACCUACAGCUACAGAAAGCAGGACUAGGAACUGGAAAUAACUUUGGGUCCUGCCUUCAUUAGGACGUUCUUUUU; result = 0.401
Sequence = AAGUUUCUGGCAUUAGCAGAUGAUUUCUGUUCACCUGGUAAGAAAAGAAUGAUAGGCUUGUCAGAGCCUAUAGCCAGAACUCAGAAAAAAUUCAAAUGCACUUAUGUUCU; result = 1.31
Sequence = UUGGGAUUGUAGACAUGUGGGAGCUAUGACAGACGUGGCCUGGGGUAGAAAGAUCUCAGGAAAGCACCUUUCUCCUUUUCAGGGUGACCGUGCUCUUCACACUCUCUGAG; result = 0.445
Sequence = UCUCUUGGUUGAUUUCAUUCCCUUGCAUCUUUCCCCUGUGCUGACAGGGGGCAGAAGGCACAACCAUUUCCAUGGUGUGCCGAGAGAAGGAGCUGAGGUCAGCAAGCCAG; result = 0.307
Sequence = GCCCCAGUAGUUGACAGCCUUGCUCCUCUCCCAAGUUCUCCUUCAGAACCUAGUUGCUUUUAUUCUUCCAGCUACCACUUGGGCACUUCACAGCCAGCCUAGGGUCUUCG; result = 0.609

Some of these lines once more (series 4):
Sequence = AGGACGGGAGCUUCCUUGAAAAAUGUAACCUGGACAUCGUUGUCAAUCCCACAACCCCUGACUCUCUGUGCUUCUAGUCCUGACGGUGUAUUAAACGUCCAUUUAACUUG; result = 0.922
Sequence = GUGGUUGGAGGGCUGGUUCAGGUGCCCUGGAGGGAAGGGGAAGCCUGUGGCCCUGAUUUGUUCAGAGCCCAUUCUCCCUUGCCUCCCCUUUUGAGACUGGAGCCAACCCU; result = 0.35
Sequence = UCUUUGAAAUAGUUUGUGUGAAGGUGAAAGUGCAGUUCAGUAAUAAAUGGUGUCUGUGACUCUGUGACCACAGCCUUGGCUCUGCGCCGCAUGAGUAAGGGGGAAACUGC; result = 1.47
Sequence = CUCUCUGUUCUUGUUAUCUUAGCCAACUAUACUGAUACCUACAGCUACAGAAAGCAGGACUAGGAACUGGAAAUAACUUUGGGUCCUGCCUUCAUUAGGACGUUCUUUUU; result = 0.401
Sequence = AAGUUUCUGGCAUUAGCAGAUGAUUUCUGUUCACCUGGUAAGAAAAGAAUGAUAGGCUUGUCAGAGCCUAUAGCCAGAACUCAGAAAAAAUUCAAAUGCACUUAUGUUCU; result = 1.31
Sequence = UUGGGAUUGUAGACAUGUGGGAGCUAUGACAGACGUGGCCUGGGGUAGAAAGAUCUCAGGAAAGCACCUUUCUCCUUUUCAGGGUGACCGUGCUCUUCACACUCUCUGAG; result = 0.445
Sequence = UCUCUUGGUUGAUUUCAUUCCCUUGCAUCUUUCCCCUGUGCUGACAGGGGGCAGAAGGCACAACCAUUUCCAUGGUGUGCCGAGAGAAGGAGCUGAGGUCAGCAAGCCAG; result = 0.307
Sequence = GCCCCAGUAGUUGACAGCCUUGCUCCUCUCCCAAGUUCUCCUUCAGAACCUAGUUGCUUUUAUUCUUCCAGCUACCACUUGGGCACUUCACAGCCAGCCUAGGGUCUUCG; result = 0.609
